Measured values pooled from the literature.
Compare with care: the assays were run in different laboratories.

SMILES	test system	setting	tolerability
CC(C)C[C@H](NC(=O)[C@H](CC(C)C)NC(=O)[C@H](Cc1c[nH]c2ccccc12)NC(=O)[C@H](CCC(=O)O)NC(=O)[C@@H](NC(=O)[C@H](Cc1ccccc1)NC(=O)[C@H](CCC(=O)O)NC(=O)[C@H](CCCCNC(=O)COCCOCCNC(=O)COCCOCCNC(=O)CC[C@H](NC(=O)CCCCCCCCCCCCCCCCCCC(=O)O)C(=O)O)NC(=O)[C@H](C)NC(=O)[C@H](CCCCN)NC(=O)[C@H](CCCCN)NC(=O)[C@H](CCC(=O)O)NC(=O)[C@H](CC(=O)O)NC(=O)[C@H](CC(C)C)NC(=O)[C@H](Cc1ccc(O)cc1)NC(=O)[C@H](CCCCN)NC(=O)[C@H](CO)NC(=O)[C@H](Cc1ccc(O)cc1)NC(=O)[C@H](CC(=O)O)NC(=O)[C@H](CO)NC(=O)[C@@H](NC(=O)[C@H](Cc1ccccc1)NC(=O)[C@@H](NC(=O)CNC(=O)[C@H](CCC(N)=O)NC(=O)C(C)(C)NC(=O)[C@@H](N)Cc1c[nH]cn1)[C@@H](C)O)[C@@H](C)O)C(C)C)C(=O)N[C@@H](CCC(=O)O)C(=O)NCC(=O)NCC(=O)N1CCC[C@H]1C(=O)N[C@@H](CO)C(=O)N[C@@H](CO)C(=O)NCC(N)=O	human obesity or overweight	subcutaneous, 16 mg weekly, trial	not toxic
CC(C)n1c(Nc2cccnc2)nc2cnc(Nc3ccc(N4CCN(C)CC4)cc3)nc21	healthy human, male	single dose, alone or co-administered, together with: itraconazole, gemfibrozil or rifampin	not toxic
CN1C(=O)[C@@H](NC(=O)c2nnc(Cc3ccccc3)[nH]2)COc2cccnc21	human, healthy subjects	dose not given, 14 days	not toxic
CC1(C)CC[C@]2(NC(=O)C(C)(F)F)CC[C@]3(C)[C@H](C(=O)C=C4[C@@]5(C)C=C(C#N)C(=O)C(C)(C)[C@@H]5CC[C@]43C)[C@@H]2C1	human	alone or with DME/transporter modulators	not toxic
N=C(N)NCc1cccc([131I])c1	human	–	not toxic
C=CC(=O)NC1CCN(c2ncc3ncnc(Nc4ccc(Oc5ccc6c(c5)ncn6C)c(C)c4)c3n2)CC1	healthy humans	–	not toxic
Cc1cc(C)c(CNC(=O)c2cc(Cl)c3c(c2C)O[C@@](C)([C@H]2CC[C@H](N(C)C)CC2)O3)c(=O)[nH]1	healthy human male	200 mg single dose	not toxic
Cn1c(=O)oc2ccc(-c3ccc(C[C@@H](C#N)NC(=O)[C@@H]4CNCCCO4)cc3)cc21	human, varying renal function	oral, 25 mg single	not toxic
CC(C)NC(=O)COc1cccc(-c2nc(Nc3ccc4[nH]ncc4c3)c3ccccc3n2)c1	human	200 mg daily, clinical DDI study	not toxic
C=CCn1c(=O)c2cnc(Nc3ccc(N4CCN(C)CC4)cc3)nc2n1-c1ccc2c(n1)[C@@](O)(CC)CC2	human	400 mg once daily intermittent 5:2	not toxic

Excerpt of the above:
SMILES	test system	setting	tolerability
CC1(C)CC[C@]2(NC(=O)C(C)(F)F)CC[C@]3(C)[C@H](C(=O)C=C4[C@@]5(C)C=C(C#N)C(=O)C(C)(C)[C@@H]5CC[C@]43C)[C@@H]2C1	human	alone or with DME/transporter modulators	not toxic
